Results pooled from the literature.
Lines come from different studies, so protocols differ.
Organism: Mycolicibacterium smegmatis

CC1CCC(C(C)C)C(OC(=O)Cn2c(-c3ccc(Br)cc3)[n+](C)c3ccccc32)C1 (stereo not drawn)
MIC (microbial growth): 25 µM

EVEPSDTIENVKAKIQ
MIC (peptide, mc^2155, 7H9 medium; overnight, 37 °C): 50 µM

CC1CCC(C(C)C)C(OC(=O)Cn2c[n+](CC(=O)OC3CC(C)CCC3C(C)C)c3ccccc32)C1 (stereo not drawn)
MIC (microbial growth): 5 µM

CCc1ccc(-c2c[nH]c(N)n2)cc1
IC50 (biofilm formation, crystal violet): 29 µM

CN(C)C(=N)N=C(N)N
MIC (microbial growth; 700084): > 512 µM

COc1ccc(-c2c[nH]c(N)n2)cc1
IC50 (biofilm formation, crystal violet): 30.1 µM

NC[C@H]1O[C@H](O[C@H]2[C@H](O)[C@@H](O[C@H]3O[C@H](CO)[C@@H](O)[C@H](N)[C@H]3O)[C@H](N)C[C@@H]2N)[C@H](N)C[C@@H]1O
MIC (wild type): 0.12 µg/mL

CCCCCc1ccc(-c2c[nH]c(N)n2)cc1
IC50 (biofilm formation, crystal violet): 13.6 µM

NCC[C@H](O)C(=O)N[C@@H]1C[C@H](N)[C@@H](O[C@H]2O[C@H](CN)[C@@H](O)[C@H](O)[C@H]2O)[C@H](O)[C@H]1O[C@H]1O[C@H](CO)[C@@H](O)[C@H](N)[C@H]1O
MIC (wild type): 0.06 µg/mL

For quick reference, copied from above:
CN(C)C(=N)N=C(N)N
MIC (microbial growth; 700084): > 512 µM
